Measurements gathered from unrelated publications.
Compare with care: the assays were run in different laboratories.

NC1CCN(C(=O)OC2CCCC3(C2)OOC2(O3)C3CC4CC(C3)CC2C4)CC1 (stereo not shown)  AUC(0-t) (mouse, plasma; oral, 50 mg/kg, single dose): 3430 ng·h/mL
O=c1cc(-c2ccccc2)oc2c(Br)c(O)c(O)c(O)c12  AUC(0-inf) (C57BL/6 mouse, plasma; intravenous, 10 mg/kg, single dose): 3210 ng·h/mL
C[C@H](CCC(=O)N[C@@H](CCCCNC(=O)C(F)(F)F)C(=O)O)[C@H]1CC[C@H]2[C@@H]3[C@H](O)C[C@@H]4C[C@H](O)CC[C@]4(C)[C@H]3C[C@H](O)[C@]12C  AUC(0-t) (mouse, plasma; oral, 50 mg/kg): 54 µM·h
CC(C)(CCCC/C=C/CCCCCC(C)(C)C(=O)O)C(=O)O  AUC(0-t) (CD-1 mouse, plasma; oral, 10 mg/kg): 128000 ng·h/mL
C[C@@](O)(C(F)F)[C@H](NC(=O)c1ccc(C#CC#CC2CC2)cc1)C(=O)NO  AUC(0-inf) (mouse, plasma; intravenous, 40 mg/kg): 24800 ng·h/mL
O=C(CN1CCN(c2cc3c(cc2F)c(=O)c(C(=O)O)cn3C2CC2)CC1)Nc1ccc(Cl)cc1  AUC (mouse, plasma; intravenous, 1.25 mg/kg): 93200 ng·h/mL
CC(C)[C@H]1NC(=O)C[C@H]2/C=C/CCSSC[C@@H](NC1=O)C(=O)N[C@H](Cc1cccc3ccccc13)C(=O)NCC(=O)O2  AUC(0-inf) (nude mouse, blood; oral, 24 mg/kg): 3.5 ng·h/mL
CS(C)(=O)=Nc1ccc(-c2ccc(-c3nc4cc(O[C@@H]5CO[C@H]6[C@@H]5OC[C@H]6O)[nH]c4cc3F)cc2)cc1  AUC (female C57BL/6 mouse, plasma; oral, 10 mg/kg): 8060 ng·h/mL
COc1nc(CC=C(C)CC=CC(C)=CC(C)C(OC2OC(CO)C(O)C(O)C2O)C(C)=CCO)c(C)c(O)c1OC (stereo not shown)  AUC(0-t) (male C57BL/6 mouse, plasma; intravenous, 2 mg/kg): 363 ng·h/mL
CCCCCCCC(=O)NC[C@H](NC(=O)[C@H](CO)NC(=O)CN)C(=O)N[C@@H](Cc1ccccc1)C(=O)N[C@@H](CC(C)C)C(=O)N[C@@H](CO)C(=O)N1CCC[C@H]1C(=O)N[C@@H](CCC(=O)O)C(=O)N[C@@H](Cc1c[nH]cn1)C(=O)N[C@@H](CCC(N)=O)C(=O)N[C@@H](CCCNC(=N)N)C(=O)N[C@H](C(=O)N[C@@H](CCC(N)=O)C(=O)N[C@H](C(=O)N[C@@H](CCCNC(=N)N)C(=O)N1CCC[C@H]1C(=O)N1CCC[C@H]1C(=O)N[C@@H](Cc1c[nH]cn1)C(=O)N[C@@H](CCCCN)C(=O)N[C@@H](C)C(=O)N1CCC[C@H]1C(=O)N[C@@H](Cc1c[nH]cn1)C(=O)N[C@H](C(=O)N[C@H](C(=O)O)C(C)C)C(C)C)C(C)C)C(C)C  AUC(0-inf) (mouse, plasma; subcutaneous, 7.2 mg/kg): 268 ng·h/mL
